Experimental data collected from several papers.
Every numbered part comes from another study and shows a few of its results, in no order. Positions count from the first letter of the parent shown.

Series 1 — method: RNA Bind-n-Seq; form: RNA; sample: in vitro; tested at: not given; reference: input RNA pool; direction: higher = stronger binding; endpoint: bound/input enrichment
Target: RING finger protein unkempt homolog, zinc fingers 1-6, GST-SBP tag (UNK, Homo sapiens, UniProt Q9C0B0, residues 30-357)
Setting: RNA with constant flanks, human and mouse sites, ends assumed
Target sequence (chain): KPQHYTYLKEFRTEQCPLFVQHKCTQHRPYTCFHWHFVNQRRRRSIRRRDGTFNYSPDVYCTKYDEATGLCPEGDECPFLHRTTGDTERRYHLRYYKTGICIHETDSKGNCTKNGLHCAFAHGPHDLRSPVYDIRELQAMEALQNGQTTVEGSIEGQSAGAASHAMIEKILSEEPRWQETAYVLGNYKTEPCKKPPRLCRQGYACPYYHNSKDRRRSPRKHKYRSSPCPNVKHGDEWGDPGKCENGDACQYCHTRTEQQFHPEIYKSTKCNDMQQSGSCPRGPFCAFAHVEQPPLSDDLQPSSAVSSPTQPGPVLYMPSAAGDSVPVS
Oligonucleotide = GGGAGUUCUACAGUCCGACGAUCGAACUGUUGAGCUCCUAUGAUGUAGAUGUUAAUCAGAUCAUAAAUACCAUAUCCGAAUGGAUAGUUUUGAUUAAGACCAGAGGCGUUAGGCGACCUGAAUUUCAGACUUUACUAACGGAACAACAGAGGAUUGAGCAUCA; result = 0.0997 ratio
Oligonucleotide = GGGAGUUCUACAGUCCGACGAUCCUGGCCUGGCCCUCCCCAGGGGCCUCCUUUCGUAUAGUCACUGCUUCUGCAUCAGAUACUUUCAGCUGCAACUCCCUACUGGGUGGGGCACCCAUUUCAGGCAGAAGGUUUUGGUACCCUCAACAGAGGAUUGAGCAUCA; result = 0.296 ratio
Oligonucleotide = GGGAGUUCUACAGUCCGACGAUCAGCUCUGUCUAUCCUACCAAGGAUGAGGAGAACAAUCCCCUUGAGACAGAAUAUGGCCUUUCUGUCUACAAGGAUCACCAGACCAUCACCAUCCAGGAGAUGCCGGAGAAGGCCCCAGCCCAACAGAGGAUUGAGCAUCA; result = 0.086 ratio
Oligonucleotide = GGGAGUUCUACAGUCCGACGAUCAGAUUCCAGCUUAGAAAGUGCCACCAUAAUAACGACAAUUUGUAGAGAGACCAAAAAUAUUUCGAGAUCACCAUAAUGCCUUUGGUUAACCGGGAUGAAUAACCAACCGCAGGCUUGUAUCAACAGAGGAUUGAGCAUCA; result = 1.2 ratio
Oligonucleotide = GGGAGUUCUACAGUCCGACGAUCUCAAAUAGAAAAGCACUUUCUUGUGUUCAUAUAACUCUUUGUCCCAAGACUUCUUCCAAGUUGGAUAGUGGAACUUUAGAUGAAAGAUUCCAUUCAUUGGAUGCUGCUUCUAAAGCGAGGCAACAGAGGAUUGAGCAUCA; result = 0.483 ratio
Oligonucleotide = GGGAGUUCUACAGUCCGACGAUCGGGAAGCAGUUUGACUCUCCCAUGCCAAGCCCCUUCCAUGGUGGAAGUUUCACUCUUCCCUUAGACACUAUGAAGAAUGAGAGAGUCUCAGAAGGACCACGACCCUUUGCCCCUGUCUUCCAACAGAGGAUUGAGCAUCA; result = 0.655 ratio
Oligonucleotide = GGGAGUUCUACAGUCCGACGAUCGACCAAGAUGGAAAUGAAGAGCUAAAGGACUUGGAAGAAUUUGGUGAAAAUGAAGAGGAAAUUGUGCAUUCCCAGGAGUUGCUUUCUACAGAAGAGAACAAGACAACUCAGGAAUUUGUACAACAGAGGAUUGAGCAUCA; result = 0.268 ratio
Oligonucleotide = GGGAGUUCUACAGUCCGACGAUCGGCAUGUUGGGUUUGCAGGACUGACCCACACAGUCUCUGCAGGUGGCAGCUCUCUUGUCUGUUUCUUGCUGUCGAGAGGGUGUAAGUGUUCCACCAGCCCGCUGAGUGUGCACGAAAUGUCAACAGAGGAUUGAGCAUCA; result = 0.0838 ratio

Series 2 — target: CEBPA, bZIP domain (human); method: DHFR protein complementation; sample: yeast; reference: wild-type JUN-FOS pair; direction: higher = stronger binding; endpoint: binding fitness
Setting: single substitutions, most at no-binding floor
Starting sequence: JUN, bZIP domain (human); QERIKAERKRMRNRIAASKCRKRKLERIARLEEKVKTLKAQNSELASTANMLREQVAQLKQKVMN; partner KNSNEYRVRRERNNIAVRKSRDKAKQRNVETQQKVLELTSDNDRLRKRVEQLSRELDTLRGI
Change = S47D; result = -1.43 natural log
Change = E54D; result = -1.43 natural log
Change = N42V; result = -1.54 natural log
Change = E32F; result = -1.4 natural log
Change = R53P; result = -1.52 natural log
Change = L31R; result = -1.5 natural log
Change = T48E; result = -1.37 natural log
Change = S47C; result = -1.42 natural log
Change = R53I; result = -1.36 natural log
Change = L38R; result = -1.49 natural log
Change = N42F; result = -1.49 natural log
Change = S43Q; result = -1.43 natural log
Change = M51K; result = -1.43 natural log
Change = T48D; result = -1.51 natural log
Change = M51I; result = -1.5 natural log
Change = V35K; result = -1.51 natural log
Change = Q55R; result = -1.29 natural log
Change = E44T; result = -1.41 natural log

Series 3 — method: DHFR PCA, deep sequencing; sample: yeast; together with: (+)-ABA 17 µM; reference: wild-type fitted maximum; direction: higher = stronger binding; endpoint: relative binding score
Target: ABI1, truncated, D143A, DHFR fusion (Arabidopsis thaliana)
Setting: methotrexate growth selection, single substitutions
Starting sequence: PYL1, truncated, DHFR fusion (Arabidopsis thaliana); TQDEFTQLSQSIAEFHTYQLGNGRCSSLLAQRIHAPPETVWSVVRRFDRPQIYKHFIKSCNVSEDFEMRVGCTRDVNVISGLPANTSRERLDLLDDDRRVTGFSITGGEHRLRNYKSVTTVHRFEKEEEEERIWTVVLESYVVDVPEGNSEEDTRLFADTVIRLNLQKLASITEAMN; partner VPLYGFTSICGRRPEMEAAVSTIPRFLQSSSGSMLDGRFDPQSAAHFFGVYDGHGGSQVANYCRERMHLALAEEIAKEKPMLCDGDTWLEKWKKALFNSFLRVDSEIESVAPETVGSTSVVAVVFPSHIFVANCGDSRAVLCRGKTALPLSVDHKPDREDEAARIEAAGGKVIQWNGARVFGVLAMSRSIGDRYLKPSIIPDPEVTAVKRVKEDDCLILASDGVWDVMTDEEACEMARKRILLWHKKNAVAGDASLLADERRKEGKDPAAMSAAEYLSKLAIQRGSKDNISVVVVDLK
Change = D159M; result = 1.04%
Change = N85K; result = 94.7%
Change = F66S; result = 70%
Change = E152K; result = 69.2%
Change = E152V; result = 70.4%
Change = R155D; result = -13.8%
Change = S63T; result = 82.3%
Change = C60L; result = 16.9%
Change = I172K; result = 41.2%
Change = F103M; result = 28.9%
Change = L138C; result = 37.7%
Change = A35K; result = -10.4%
Change = R98K; result = 86.2%
Change = W41L; result = 6.13%
Change = V137F; result = 22.4%
Change = T173V; result = 81.7%
Change = V142I; result = 81.8%
Change = I172G; result = 5.16%
Change = E147N; result = 73.8%
Change = K126I; result = 88.2%
Change = E67V; result = 89.6%
Change = P146I; result = 15.1%
Change = C72W; result = 44.6%

Series 4 — target: CCNA1, cyclin fold, Cln2 fusion (human); method: yeast growth competition, sequencing; sample: yeast; setting: weak parent motif; reference: not given; direction: higher = stronger binding; endpoint: normalised enrichment score
Starting sequence: PPP1R3F docking peptide (human); VAPRRVLFADEAL; partner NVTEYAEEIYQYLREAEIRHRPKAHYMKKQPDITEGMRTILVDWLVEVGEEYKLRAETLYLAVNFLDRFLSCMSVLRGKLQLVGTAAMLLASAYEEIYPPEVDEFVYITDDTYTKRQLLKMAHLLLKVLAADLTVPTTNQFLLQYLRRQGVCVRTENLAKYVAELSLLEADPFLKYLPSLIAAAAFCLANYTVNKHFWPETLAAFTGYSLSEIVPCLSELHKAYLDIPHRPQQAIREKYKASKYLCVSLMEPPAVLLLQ
Change = VAPRRALFADEAL [V6A]; result = 0.187
Change = VAPRAVLFADEAL [R5A]; result = 0.506
Change = VAPRAVAFADEAL [R5A L7A]; result = 0.131
Change = VAPRRVLFADAAL [E11A]; result = 0.311
Change = VAPRKVLLADEAL [R5K F8L]; result = 0.251
Change = VAPRRVLAADEAL [F8A]; result = 0.218
Change = VAPRKVLFADEAL [R5K]; result = 0.0632
Change = VAPRRVLFAAEAL [D10A]; result = 0.588

Series 5 — method: protein-binding microarray; form: double-stranded DNA, one strand shown; sample: in vitro; tested at: 940 nM top; setting: 60-bp whole probe; together with: salmon DNA 0.4 mg/ml; reference: random background probes; direction: higher = stronger binding; endpoint: fitted relative affinity; shared flanks, not repeated: GCCTAGCAC … GTCTTGATTCGCTTGACGCTGCTG
Target: Interferon regulatory factor 5, full length, phosphomimetic (IRF5, Homo sapiens, UniProt Q13568-2, residues 1-514, S451D/S453D/S456D/S462D)
Oligonucleotide = TTAGATATCCGGACTGGATTAGTGCTA; result = -0.494 z-score
Oligonucleotide = TCTACTGTCTGTTTCCTCTTGTGCTAG; result = 0.939 z-score
Oligonucleotide = AACGGTATCGGGACTGGGGACGTGCTA; result = 3.24 z-score
Oligonucleotide = GAAGGTTTCGACACTGGGGACGTGCTA; result = 6.1 z-score
Oligonucleotide = TTAGTTATCAGTCTCGATTAGTGCTAG; result = 3.09 z-score
Oligonucleotide = GACGGTATCGGGACTGGGTACGTGCTA; result = 2.81 z-score
Oligonucleotide = TCAAGTTTCTCAACCACACTGTGCTAG; result = 1.27 z-score
Oligonucleotide = GGCGAACTGAGTTTCGAGACGTGCTAG; result = 3.86 z-score
Oligonucleotide = GTCTGTTTGGGTCTTGTCTGGTGCTAG; result = 0.251 z-score
Oligonucleotide = CACGATATCAGACTGGAGACGTGCTAG; result = -0.049 z-score
Oligonucleotide = ATAGGTATCCTACTGCTTTAGTGCTAG; result = -0.0205 z-score
Oligonucleotide = AGACTTTTTTCAGACCTGTCGTGCTAG; result = 0.654 z-score
Oligonucleotide = GACGGTTGCGACTTTCGGGACGTGCTA; result = 1.18 z-score
Oligonucleotide = GACGGTAGCCTTTTCCTGACGTGCTAG; result = -0.297 z-score
Oligonucleotide = TCATGTTTCTTCTGCTGACTGTGCTAG; result = 1.12 z-score
Oligonucleotide = CTAGATTTCAGTTTCGATTAGTGCTAG; result = 9.39 z-score
Oligonucleotide = CAGGGTTTCACTTTAAATTAGTGCTAG; result = 5.79 z-score
Oligonucleotide = GACGGTTCCGGTTGCGGGACGTGCTAG; result = 2.41 z-score
Oligonucleotide = TTAGATATCGGGCATCGATTAGTGCTA; result = -0.0281 z-score

Repeated from above (series 4):
Change = VAPRRVLAADEAL [F8A]; result = 0.218
Change = VAPRAVAFADEAL [R5A L7A]; result = 0.131
Change = VAPRRVLFADAAL [E11A]; result = 0.311
Change = VAPRAVLFADEAL [R5A]; result = 0.506
Change = VAPRKVLLADEAL [R5K F8L]; result = 0.251
Change = VAPRKVLFADEAL [R5K]; result = 0.0632
Change = VAPRRVLFAAEAL [D10A]; result = 0.588
Change = VAPRRALFADEAL [V6A]; result = 0.187
